Measurements collected from several papers.
Protocols differ between the studies behind these lines. Numbers after ± are the reported error.
Chain of UniProt Q16832 (whole entry, looked up): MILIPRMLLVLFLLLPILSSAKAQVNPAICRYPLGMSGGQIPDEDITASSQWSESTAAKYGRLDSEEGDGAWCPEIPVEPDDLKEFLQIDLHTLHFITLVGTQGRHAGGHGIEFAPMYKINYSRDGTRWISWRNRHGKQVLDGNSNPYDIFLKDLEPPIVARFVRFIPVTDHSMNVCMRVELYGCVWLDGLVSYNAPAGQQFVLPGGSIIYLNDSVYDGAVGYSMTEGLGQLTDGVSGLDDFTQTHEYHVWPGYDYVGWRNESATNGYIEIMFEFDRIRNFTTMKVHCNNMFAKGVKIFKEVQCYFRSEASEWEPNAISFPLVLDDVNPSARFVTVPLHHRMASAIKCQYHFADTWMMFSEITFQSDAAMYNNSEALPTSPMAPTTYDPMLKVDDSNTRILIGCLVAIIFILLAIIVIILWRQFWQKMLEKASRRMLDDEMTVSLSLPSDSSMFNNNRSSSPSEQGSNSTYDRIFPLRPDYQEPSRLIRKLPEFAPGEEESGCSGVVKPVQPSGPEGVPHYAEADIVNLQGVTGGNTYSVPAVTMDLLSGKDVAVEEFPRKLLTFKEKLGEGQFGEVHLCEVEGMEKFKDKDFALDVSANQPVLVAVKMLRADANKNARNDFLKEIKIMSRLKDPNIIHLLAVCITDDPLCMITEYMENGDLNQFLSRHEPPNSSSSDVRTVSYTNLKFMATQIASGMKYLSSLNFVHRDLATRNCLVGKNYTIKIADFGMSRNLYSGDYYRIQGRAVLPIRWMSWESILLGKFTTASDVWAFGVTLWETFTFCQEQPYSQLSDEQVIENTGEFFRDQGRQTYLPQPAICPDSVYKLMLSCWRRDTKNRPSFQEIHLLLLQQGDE
Chain of UniProt P03303 (whole entry, looked up): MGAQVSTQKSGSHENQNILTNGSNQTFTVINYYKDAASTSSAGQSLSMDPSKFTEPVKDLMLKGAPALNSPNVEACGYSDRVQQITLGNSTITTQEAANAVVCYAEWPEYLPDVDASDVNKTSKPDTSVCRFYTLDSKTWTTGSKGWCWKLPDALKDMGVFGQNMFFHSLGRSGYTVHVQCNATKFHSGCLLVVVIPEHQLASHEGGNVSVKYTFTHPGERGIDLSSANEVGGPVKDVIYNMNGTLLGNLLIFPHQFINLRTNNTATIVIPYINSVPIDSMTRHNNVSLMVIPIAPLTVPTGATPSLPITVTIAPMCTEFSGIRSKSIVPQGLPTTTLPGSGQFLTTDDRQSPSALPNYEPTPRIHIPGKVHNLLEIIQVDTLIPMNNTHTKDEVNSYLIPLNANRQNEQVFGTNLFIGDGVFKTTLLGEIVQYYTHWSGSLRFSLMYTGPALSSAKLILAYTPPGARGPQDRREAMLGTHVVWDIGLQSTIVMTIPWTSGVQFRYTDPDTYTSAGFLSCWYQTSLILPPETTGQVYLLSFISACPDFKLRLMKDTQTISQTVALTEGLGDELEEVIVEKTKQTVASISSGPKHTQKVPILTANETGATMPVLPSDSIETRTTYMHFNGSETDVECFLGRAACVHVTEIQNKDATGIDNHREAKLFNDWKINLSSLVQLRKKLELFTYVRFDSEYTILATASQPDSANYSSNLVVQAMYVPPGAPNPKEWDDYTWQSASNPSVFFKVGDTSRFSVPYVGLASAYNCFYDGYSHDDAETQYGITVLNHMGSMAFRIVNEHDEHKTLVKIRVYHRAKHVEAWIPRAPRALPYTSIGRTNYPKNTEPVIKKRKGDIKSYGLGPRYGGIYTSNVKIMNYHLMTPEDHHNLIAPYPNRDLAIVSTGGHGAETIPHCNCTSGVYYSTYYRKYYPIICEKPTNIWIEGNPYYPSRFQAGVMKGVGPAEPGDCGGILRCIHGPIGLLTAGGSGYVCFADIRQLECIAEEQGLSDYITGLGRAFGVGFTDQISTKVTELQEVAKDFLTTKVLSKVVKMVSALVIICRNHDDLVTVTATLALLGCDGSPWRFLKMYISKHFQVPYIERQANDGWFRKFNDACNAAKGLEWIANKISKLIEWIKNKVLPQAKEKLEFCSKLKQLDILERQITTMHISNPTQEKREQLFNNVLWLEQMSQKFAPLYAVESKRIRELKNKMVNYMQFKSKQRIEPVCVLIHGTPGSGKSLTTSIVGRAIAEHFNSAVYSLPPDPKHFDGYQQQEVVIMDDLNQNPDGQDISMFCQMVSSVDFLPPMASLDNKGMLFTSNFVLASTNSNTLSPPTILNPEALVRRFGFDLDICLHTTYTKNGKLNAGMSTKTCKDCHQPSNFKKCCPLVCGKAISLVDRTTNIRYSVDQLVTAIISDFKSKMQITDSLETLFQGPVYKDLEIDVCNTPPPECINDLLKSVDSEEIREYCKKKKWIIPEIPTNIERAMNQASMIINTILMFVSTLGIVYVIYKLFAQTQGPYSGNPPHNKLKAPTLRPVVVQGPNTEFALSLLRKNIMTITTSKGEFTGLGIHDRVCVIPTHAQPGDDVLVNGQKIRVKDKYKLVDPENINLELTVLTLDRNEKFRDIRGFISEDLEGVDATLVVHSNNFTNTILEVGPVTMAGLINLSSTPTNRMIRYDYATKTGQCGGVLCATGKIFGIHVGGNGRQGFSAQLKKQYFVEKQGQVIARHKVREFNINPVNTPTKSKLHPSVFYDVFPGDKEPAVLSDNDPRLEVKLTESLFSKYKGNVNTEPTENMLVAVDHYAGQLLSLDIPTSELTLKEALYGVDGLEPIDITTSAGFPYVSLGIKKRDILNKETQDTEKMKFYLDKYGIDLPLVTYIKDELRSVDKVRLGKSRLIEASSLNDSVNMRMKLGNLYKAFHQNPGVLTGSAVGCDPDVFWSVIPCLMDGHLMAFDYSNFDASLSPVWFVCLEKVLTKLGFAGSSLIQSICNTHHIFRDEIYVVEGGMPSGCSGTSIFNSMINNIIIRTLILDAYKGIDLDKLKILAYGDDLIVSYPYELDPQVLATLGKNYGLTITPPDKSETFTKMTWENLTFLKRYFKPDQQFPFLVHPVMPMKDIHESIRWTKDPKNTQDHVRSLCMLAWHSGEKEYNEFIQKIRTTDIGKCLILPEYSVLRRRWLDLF
Chain of UniProt O13828 (whole entry, looked up): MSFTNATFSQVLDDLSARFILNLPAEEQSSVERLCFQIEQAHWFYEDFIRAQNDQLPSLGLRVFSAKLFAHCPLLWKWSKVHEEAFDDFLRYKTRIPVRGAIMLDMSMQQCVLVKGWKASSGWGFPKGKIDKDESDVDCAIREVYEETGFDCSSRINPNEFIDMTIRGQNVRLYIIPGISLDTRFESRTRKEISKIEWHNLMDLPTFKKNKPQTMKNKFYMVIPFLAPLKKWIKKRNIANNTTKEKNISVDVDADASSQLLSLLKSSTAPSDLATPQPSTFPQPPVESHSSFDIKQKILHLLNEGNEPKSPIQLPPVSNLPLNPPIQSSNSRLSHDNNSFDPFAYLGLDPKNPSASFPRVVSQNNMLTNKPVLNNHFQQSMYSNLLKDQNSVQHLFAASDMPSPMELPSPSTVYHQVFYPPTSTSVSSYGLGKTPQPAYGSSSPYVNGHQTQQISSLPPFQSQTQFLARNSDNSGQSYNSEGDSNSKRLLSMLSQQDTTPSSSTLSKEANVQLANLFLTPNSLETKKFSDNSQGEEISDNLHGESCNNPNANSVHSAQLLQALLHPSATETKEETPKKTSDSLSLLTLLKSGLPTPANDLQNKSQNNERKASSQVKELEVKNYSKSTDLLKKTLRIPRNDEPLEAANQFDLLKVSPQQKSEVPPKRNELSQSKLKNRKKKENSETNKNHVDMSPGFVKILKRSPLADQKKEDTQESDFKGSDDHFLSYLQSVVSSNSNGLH
Chain of UniProt P07510 (whole entry, looked up): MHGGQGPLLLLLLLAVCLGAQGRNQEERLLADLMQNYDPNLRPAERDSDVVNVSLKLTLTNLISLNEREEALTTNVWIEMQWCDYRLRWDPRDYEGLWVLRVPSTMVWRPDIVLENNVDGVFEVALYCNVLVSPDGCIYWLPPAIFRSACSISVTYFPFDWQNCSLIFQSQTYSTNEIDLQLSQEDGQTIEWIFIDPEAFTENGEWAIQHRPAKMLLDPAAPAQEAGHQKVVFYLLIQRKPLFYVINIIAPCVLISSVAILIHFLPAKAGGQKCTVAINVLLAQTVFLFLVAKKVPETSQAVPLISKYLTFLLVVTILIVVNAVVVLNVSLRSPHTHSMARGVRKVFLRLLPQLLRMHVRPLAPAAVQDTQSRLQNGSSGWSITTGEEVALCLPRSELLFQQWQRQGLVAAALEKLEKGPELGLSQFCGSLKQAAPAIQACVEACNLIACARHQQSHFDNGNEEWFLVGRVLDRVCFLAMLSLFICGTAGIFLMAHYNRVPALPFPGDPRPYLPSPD
Chain of UniProt P38606 (whole entry, looked up): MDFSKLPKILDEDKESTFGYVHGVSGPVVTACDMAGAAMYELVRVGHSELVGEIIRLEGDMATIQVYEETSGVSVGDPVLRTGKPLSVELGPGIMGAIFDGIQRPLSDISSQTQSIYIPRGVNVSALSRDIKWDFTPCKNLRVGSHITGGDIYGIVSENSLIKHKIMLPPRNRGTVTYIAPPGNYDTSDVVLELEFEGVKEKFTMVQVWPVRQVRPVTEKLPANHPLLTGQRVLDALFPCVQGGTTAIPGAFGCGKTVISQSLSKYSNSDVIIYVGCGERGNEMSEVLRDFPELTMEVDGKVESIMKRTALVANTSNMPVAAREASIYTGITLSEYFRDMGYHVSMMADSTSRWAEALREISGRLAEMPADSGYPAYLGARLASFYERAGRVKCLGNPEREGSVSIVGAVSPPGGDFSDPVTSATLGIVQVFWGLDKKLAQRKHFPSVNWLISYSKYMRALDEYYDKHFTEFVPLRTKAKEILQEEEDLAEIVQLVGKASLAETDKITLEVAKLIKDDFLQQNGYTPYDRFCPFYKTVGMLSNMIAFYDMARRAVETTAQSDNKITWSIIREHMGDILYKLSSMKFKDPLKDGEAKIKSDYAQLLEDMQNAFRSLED

`O=C(NC1CCN(c2ncnc3[nH]cnc23)CC1)c1cccc(NS(=O)(=O)c2ccc(C(F)(F)F)cc2)c1` gave an inhibition of 7.15% (mRNA cap guanine-N(7) methyltransferase (RNMT, Homo sapiens, UniProt O43148); enzyme activity, inhibitor; 0.1953 µM).
For `CCc1nnc(-c2c(OC)cc(-c3cnc4cc(-c5cnn(C)c5)ccn34)cc2OC)o1`, the remaining binding was 123% (5-hydroxytryptamine receptor 1B (HTR1B, Homo sapiens, UniProt P28222); antagonist radioligand, radioligand binding; 10 µM, SafetyScreen44 5-HT1B replicate 2; lower = stronger displacement).
The remaining activity of `O=C1NC(=O)c2c1c1cc(F)c[n+]3c1c1c2c2cc(O)ccc2[n]1[Ru-4]312([N]=C=S)[S+]3CC[S+]1CC[S+]2CC3` (centres unmarked) is reported as 92% (Discoidin domain-containing receptor 2 (DDR2, Homo sapiens, UniProt Q16832); enzyme activity; 100 nM, human enzyme, with: 10 µM ATP; relative to: untreated).
With `Cn1cc(C(=O)Nc2ccccn2)c2ccccc21` the Hill slope was 1.44 (Genome polyprotein, 3C protease (rhinovirus B14, UniProt P03303); protease activity, SAMDI-MS).
`CS(C)(=O)=Nc1ccc(-c2ccc(-c3nc4cc(O[C@@H]5CO[C@H]6[C@@H]5OC[C@H]6O)[nH]c4cc3F)cc2)cc1` gave an inhibition of -2% (Serine/threonine-protein kinase Chk1 (CHEK1, Homo sapiens, UniProt O14757); enzyme activity, inhibitor; 10 µM).
With `CN(C)[C@H]1C[C@@]23CC[C@@]4(O2)C(=CC[C@]2(C)[C@@H](c5ccc6ccncc6c5)CC[C@H]24)C=C3[C@@H](O)[C@@H]1O` the inhibition was 4.2% (Serine/threonine-protein kinase Nek4 (NEK4, Homo sapiens, UniProt P51957); ATP probe labelling, inhibitor, KiNativ profiling; 1 µM).
`C#CCCCCOc1ccc2c(c1)CCCN2C(=O)CCl` has a reactivity ratio of 0.632 (V-type proton ATPase catalytic subunit A (ATP6V1A, Homo sapiens, UniProt P38606); mass spectrometry profiling; Ramos cell lysate; 100 µM over 10 µM, UniProt P38606; relative to: high over low concentration).
`C[n+]1cn([C@@H]2O[C@H](COP(=O)([S-])OP(=O)(O)OP(=O)(O)OP(=O)([S-])OC[C@H]3O[C@@H](n4c[n+](C)c5c(O)nc(N)nc54)[C@H](O)[C@@H]3O)[C@@H](O)[C@H]2O)c2nc(N)nc(O)c21` (some centres unmarked) has a kmax of 0.39 ± 0.2 min⁻¹ (mRNA decapping complex subunit 2 (dcp2, Schizosaccharomyces pombe, UniProt O13828); single-turnover kinetics; 29-nt native-capped RNA substrate; 0.125 mM).
The Emax of `O=C(Cc1ccc(Cl)c(Cl)c1)N1CCN(Cc2ccccc2)[C@@H]2COC[C@H](N3CCCC3)[C@H]21` (single isomer, unassigned) is reported as 65% (Kappa-type opioid receptor (OPRK1, Homo sapiens, UniProt P41145); β-arrestin-2 recruitment, agonist; U2OS; 1.5 h; relative to: U-69593 maximal response).
`C[C@@H]1COCCN1c1nc(NCc2cccnc2C(F)(F)F)c2cccnc2n1` gave an IC50 of over 100 µM (CHRNA1/CHRNG/CHRND (Homo sapiens, UniProt P02708+P07510+Q07001); binding; CEREP panel).
With `Cc1cc(C)cc(/N=N/c2cccc([B-](F)(F)F)c2)c1.[K+]` the switching factor was 4.9 ± 1 (Chymotrypsinogen A (Bos taurus, UniProt P00766); enzyme activity, inhibitor; with: Suc-AAPF-AMC; relative to: Ki cis over Ki trans).
